Results of several laboratories.
Parts stem from different laboratories: compare values within a part only.
Sequence of UniProt O15264 (whole entry, looked up): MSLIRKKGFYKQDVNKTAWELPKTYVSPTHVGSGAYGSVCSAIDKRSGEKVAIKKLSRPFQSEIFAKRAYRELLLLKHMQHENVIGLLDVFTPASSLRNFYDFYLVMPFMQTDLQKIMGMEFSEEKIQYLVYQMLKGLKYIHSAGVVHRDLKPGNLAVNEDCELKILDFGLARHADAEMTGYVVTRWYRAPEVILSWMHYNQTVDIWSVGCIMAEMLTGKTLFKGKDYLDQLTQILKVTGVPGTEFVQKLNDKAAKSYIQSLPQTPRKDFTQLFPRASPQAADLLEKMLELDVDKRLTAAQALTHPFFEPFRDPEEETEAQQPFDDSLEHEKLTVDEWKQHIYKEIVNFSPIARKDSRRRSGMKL
Sequence of UniProt Q8N5S9 (whole entry, looked up): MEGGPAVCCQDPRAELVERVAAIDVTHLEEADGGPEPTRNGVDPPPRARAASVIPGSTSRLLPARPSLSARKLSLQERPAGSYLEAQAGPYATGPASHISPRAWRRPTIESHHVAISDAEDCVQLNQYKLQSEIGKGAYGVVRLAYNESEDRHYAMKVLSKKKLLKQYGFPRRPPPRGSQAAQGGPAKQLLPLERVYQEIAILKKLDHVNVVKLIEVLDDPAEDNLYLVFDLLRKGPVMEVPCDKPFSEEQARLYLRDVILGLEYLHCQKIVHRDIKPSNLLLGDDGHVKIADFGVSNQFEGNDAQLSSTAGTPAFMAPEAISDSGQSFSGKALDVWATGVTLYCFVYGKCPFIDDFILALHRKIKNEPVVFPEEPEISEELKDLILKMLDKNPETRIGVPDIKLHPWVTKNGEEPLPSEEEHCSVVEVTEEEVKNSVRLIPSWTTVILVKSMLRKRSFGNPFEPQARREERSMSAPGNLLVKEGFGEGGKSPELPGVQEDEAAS
Sequence of UniProt Q06418 (whole entry, looked up): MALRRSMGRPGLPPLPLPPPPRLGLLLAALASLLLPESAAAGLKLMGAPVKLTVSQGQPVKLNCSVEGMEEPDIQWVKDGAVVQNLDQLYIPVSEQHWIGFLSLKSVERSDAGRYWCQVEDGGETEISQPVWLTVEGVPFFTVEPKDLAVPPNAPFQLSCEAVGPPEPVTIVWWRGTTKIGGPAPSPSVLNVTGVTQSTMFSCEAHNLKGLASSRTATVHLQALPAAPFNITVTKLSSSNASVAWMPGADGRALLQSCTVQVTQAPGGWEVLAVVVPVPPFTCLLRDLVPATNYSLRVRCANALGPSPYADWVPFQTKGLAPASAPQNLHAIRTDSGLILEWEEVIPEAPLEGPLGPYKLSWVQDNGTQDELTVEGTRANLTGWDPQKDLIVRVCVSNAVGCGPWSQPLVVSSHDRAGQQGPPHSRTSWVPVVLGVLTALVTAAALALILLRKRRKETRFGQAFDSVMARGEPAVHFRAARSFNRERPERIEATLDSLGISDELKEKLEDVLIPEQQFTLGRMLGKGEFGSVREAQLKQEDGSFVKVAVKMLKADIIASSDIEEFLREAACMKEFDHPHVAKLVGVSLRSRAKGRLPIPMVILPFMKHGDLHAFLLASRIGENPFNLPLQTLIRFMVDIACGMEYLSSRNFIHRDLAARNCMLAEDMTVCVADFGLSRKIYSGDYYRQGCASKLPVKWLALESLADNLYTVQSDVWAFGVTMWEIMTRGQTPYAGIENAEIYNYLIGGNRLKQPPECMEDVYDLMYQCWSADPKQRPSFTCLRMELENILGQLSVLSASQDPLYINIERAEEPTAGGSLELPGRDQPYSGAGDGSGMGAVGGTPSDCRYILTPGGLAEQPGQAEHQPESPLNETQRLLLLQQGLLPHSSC
Sequence of UniProt P50750 (whole entry, looked up): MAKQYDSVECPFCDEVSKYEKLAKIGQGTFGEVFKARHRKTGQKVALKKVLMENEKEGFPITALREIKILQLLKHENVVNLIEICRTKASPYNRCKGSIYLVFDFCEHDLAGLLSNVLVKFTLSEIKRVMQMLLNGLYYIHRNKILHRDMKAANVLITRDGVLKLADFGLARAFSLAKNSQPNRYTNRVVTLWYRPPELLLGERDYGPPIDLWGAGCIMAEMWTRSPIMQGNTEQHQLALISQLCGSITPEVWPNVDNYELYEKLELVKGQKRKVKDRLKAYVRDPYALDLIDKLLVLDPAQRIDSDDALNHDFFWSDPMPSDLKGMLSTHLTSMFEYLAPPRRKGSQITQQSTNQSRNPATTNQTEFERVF
Sequence of UniProt P17948 (whole entry, looked up): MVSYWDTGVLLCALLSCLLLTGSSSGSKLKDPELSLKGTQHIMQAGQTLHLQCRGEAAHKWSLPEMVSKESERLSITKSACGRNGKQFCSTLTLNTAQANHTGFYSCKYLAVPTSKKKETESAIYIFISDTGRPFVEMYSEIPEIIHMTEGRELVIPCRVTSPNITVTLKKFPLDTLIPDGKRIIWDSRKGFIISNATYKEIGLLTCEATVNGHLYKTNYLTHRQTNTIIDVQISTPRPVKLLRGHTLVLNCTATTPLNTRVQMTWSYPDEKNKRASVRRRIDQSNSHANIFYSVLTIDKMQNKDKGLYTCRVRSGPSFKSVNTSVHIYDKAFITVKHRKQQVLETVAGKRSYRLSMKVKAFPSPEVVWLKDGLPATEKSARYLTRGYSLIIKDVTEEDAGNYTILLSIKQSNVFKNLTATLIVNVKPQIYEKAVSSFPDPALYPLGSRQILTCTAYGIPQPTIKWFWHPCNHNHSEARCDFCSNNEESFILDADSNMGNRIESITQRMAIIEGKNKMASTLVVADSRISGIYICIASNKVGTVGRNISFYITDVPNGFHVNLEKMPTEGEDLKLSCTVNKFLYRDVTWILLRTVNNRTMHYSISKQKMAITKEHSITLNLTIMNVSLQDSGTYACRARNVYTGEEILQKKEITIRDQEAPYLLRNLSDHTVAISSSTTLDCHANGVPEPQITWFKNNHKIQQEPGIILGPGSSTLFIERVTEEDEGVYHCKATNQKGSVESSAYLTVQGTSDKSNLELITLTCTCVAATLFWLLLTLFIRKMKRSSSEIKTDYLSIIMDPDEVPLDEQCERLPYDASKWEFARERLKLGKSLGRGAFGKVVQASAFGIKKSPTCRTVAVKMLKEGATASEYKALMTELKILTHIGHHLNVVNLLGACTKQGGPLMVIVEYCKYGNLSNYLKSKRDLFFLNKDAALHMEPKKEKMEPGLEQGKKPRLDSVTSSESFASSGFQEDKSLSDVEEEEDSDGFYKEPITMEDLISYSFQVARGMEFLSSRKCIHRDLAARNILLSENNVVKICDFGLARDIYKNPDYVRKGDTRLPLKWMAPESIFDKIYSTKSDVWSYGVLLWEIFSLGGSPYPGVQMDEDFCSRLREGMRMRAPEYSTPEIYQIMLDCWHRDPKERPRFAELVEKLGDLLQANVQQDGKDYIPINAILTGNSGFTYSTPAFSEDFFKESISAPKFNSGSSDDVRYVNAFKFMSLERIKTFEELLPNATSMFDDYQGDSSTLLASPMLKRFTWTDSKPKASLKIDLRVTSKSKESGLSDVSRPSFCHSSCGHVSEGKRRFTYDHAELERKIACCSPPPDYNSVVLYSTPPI
Sequence of UniProt O75385 (whole entry, looked up): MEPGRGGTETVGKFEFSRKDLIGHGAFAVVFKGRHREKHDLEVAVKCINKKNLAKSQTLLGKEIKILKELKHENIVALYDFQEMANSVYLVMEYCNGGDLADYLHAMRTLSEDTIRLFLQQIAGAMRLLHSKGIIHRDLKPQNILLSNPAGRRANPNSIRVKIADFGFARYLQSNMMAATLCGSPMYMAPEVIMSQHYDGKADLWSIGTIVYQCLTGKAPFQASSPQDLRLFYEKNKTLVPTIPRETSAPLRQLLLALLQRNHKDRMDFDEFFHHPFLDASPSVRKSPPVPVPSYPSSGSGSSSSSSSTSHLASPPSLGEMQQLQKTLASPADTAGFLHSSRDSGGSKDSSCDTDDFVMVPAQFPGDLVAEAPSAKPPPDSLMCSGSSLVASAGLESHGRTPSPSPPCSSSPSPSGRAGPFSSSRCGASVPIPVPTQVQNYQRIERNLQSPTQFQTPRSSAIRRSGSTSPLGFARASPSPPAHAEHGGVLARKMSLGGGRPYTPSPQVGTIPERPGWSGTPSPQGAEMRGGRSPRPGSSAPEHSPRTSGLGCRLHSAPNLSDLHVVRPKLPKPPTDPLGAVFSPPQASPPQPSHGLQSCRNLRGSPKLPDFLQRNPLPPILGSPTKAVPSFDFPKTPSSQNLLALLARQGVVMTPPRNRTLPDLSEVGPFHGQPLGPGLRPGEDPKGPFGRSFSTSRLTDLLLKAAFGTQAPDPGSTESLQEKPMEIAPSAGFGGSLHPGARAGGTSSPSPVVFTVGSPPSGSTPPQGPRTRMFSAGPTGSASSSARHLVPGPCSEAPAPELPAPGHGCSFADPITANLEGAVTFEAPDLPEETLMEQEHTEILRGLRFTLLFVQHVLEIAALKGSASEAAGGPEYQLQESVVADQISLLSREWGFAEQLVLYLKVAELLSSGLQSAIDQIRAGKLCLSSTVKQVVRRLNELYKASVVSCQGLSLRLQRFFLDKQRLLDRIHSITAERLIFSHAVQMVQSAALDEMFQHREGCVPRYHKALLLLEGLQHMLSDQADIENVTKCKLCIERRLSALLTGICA
Sequence of UniProt P48729 (whole entry, looked up): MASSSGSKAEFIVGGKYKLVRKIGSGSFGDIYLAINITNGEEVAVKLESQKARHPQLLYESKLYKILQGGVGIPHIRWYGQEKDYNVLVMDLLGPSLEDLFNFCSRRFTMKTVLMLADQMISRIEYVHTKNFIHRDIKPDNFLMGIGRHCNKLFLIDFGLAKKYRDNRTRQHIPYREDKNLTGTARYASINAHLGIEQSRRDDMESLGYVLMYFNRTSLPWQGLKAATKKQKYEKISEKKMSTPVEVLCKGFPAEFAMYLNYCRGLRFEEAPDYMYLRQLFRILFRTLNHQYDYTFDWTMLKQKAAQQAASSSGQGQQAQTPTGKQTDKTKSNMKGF

Set 1
Host: human
Matrix: microsomes or S9
Concentration: 2 µM
Time: 0.5 h
Endpoint: remaining compound
Cc1ccc(N2C(=O)c3[nH]nc(C)c3C2c2ccc(F)cc2)cc1 (stereo not drawn): > 99%
CC(C)(C)OC(=O)N[C@@H](CC(=O)N1CCCN(C(=O)CN2CCC(c3ccccc3)CC2)CC1)Cc1cc(F)c(F)cc1F: 0.225%
O=C(c1ccccc1C1CCNC1)N1CCC2(C=Cc3ccccc32)CC1 (stereo not drawn): 88%
COc1cccc(CN2CCC(C(=O)N3CCN(Cc4ccc5c(c4)OCO5)CC3)CC2)c1OC: 84%
CCC(=O)N1CCC(N(C(=O)COC)C2CCOCC2)CC1: 93.1%
COc1ccc(N)cc1-n1nnnc1-n1cccn1: 54.3%
Cc1cc(C)c2c(n1)oc1c(N3CCN(C(=O)c4ccco4)CC3)ncnc12: 100%
CCn1c(=O)n(CC)c2cc(NC(=O)CCN3Cc4ccccc4C3=O)ccc21: 58.1%
CCN(Cc1nc(-c2cccs2)no1)C(=O)C(C)Oc1cc(C)c(Cl)c(C)c1 (stereo not drawn): < 1%
OC/C=C/Cc1cc2cc(Cl)ccc2n1-c1ncccn1: 58.3%
CCCc1c(C(=O)O)cnn1-c1nc(CC)cc(=O)[nH]1: > 99.9%
O=C(O)c1ccc(CN(c2ccccn2)S(=O)(=O)c2ccccc2)cc1: 96.5%

Set 2
SMILES: O=c1nc(-c2ccccn2)sc2ccccc12
Method: competition with immobilised ligand
Concentration: 1 µM
Endpoint: remaining binding
Cyclin-dependent kinase 9 (CDK9, Homo sapiens, UniProt P50750); binding: 95%
Serine/threonine-protein kinase TAO1 (TAOK1, Homo sapiens, UniProt Q7L7X3); binding: 92%
Mitogen-activated protein kinase kinase kinase 19 (MAP3K19, Homo sapiens, UniProt Q56UN5); binding: 86%
Serine/threonine-protein kinase ULK1 (ULK1, Homo sapiens, UniProt O75385); binding: 100%
Serine/threonine-protein kinase PAK 2 (PAK2, Homo sapiens, UniProt Q13177); cell-free assay: 100%
Cyclin-dependent kinase 4, with cyclin D3 (CDK4, Homo sapiens, UniProt P11802); binding: 90%
cGMP-dependent protein kinase 2 (PRKG2, Homo sapiens, UniProt Q13237); binding: 96%
Mast/stem cell growth factor receptor Kit (KIT, Homo sapiens, UniProt P10721, T670I/V559D); binding: 83%
Ribosomal protein S6 kinase alpha-6, C-terminal kinase domain (RPS6KA6, Homo sapiens, UniProt Q9UK32); binding: 92%
Fibroblast growth factor receptor 4 (FGFR4, Homo sapiens, UniProt P22455); cell-free assay: 73%
Ribosomal protein S6 kinase alpha-1, N-terminal kinase domain (RPS6KA1, Homo sapiens, UniProt Q15418); binding: 100%
Casein kinase I isoform alpha (CSNK1A1, Homo sapiens, UniProt P48729); cell-free assay: 76%
Rho-associated protein kinase 2 (ROCK2, Homo sapiens, UniProt O75116); binding: 94%
Phosphatidylinositol 4,5-bisphosphate 3-kinase catalytic subunit delta isoform (PIK3CD, Homo sapiens, UniProt O00329); cell-free assay: 54%
Serine/threonine-protein kinase Nek4 (NEK4, Homo sapiens, UniProt P51957); binding: 91%
Homeodomain-interacting protein kinase 2 (HIPK2, Homo sapiens, UniProt Q9H2X6); binding: 76%
Epidermal growth factor receptor (EGFR, Homo sapiens, UniProt P00533, del752-759); cell-free assay: 84%
Mitogen-activated protein kinase 13 (MAPK13, Homo sapiens, UniProt O15264); binding: 99%

Set 3
SMILES: O=C1Nc2ccccc2/C1=C\c1c(Cl)[nH]c2ccccc12
Read-out: enzyme activity
Action: inhibitor
Concentration: 0.5 µM
Baseline: control
Endpoint: remaining activity
Calcium/calmodulin-dependent protein kinase kinase 1 (CAMKK1, Homo sapiens, UniProt Q8N5S9): 116%
Ephrin type-A receptor 2 (EPHA2, Homo sapiens, UniProt P29317): 97.3%
Muscle, skeletal receptor tyrosine-protein kinase (MUSK, Homo sapiens, UniProt O15146): 96.4%
Tyrosine-protein kinase receptor TYRO3 (TYRO3, Homo sapiens, UniProt Q06418): 99.4%
Insulin-like growth factor 1 receptor (IGF1R, Homo sapiens, UniProt P08069): 105%
Protein kinase C zeta type (PRKCZ, Homo sapiens, UniProt Q05513): 103%
SRSF protein kinase 1 (SRPK1, Homo sapiens, UniProt Q96SB4): 94.2%
Dual specificity protein kinase CLK1 (CLK1, Homo sapiens, UniProt P49759): 103%
Cyclin-dependent kinase 2, with cyclin E (CDK2, Homo sapiens, UniProt P24941): 79.9%
Ribosomal protein S6 kinase alpha-3 (RPS6KA3, Homo sapiens, UniProt P51812): 82.9%
Serine/threonine-protein kinase PAK 1 (PAK1, Homo sapiens, UniProt Q13153): 92.8%
Vascular endothelial growth factor receptor 1 (FLT1, Homo sapiens, UniProt P17948): 88.6%

Set 4
Compound: CC(C)n1cnc(-c2ccc(F)cc2)c1-c1ncc(C(=O)Nc2ccc(N3CCN(C)CC3)cc2)[nH]1
Method: phase 2a clinical trial
Host: patients with idiopathic pulmonary fibrosis
Endpoint: patients with treatment-emergent adverse events
measured: carbon dioxide decreased; 60 mg once daily, Grade 2: 0%
measured: carbon dioxide decreased; 60 mg once daily, Grade 3: 0%
measured: C-reactive protein increased; 60 mg once daily, Grade 3: 0%
measured: benign prostatic hyperplasia; 30 mg once daily, Grade 4, maximum intensity: 0%
measured: drug-induced liver injury; 60 mg once daily, Grade 1: 0%
measured: idiopathic pulmonary fibrosis; 30 mg once daily, Grade 5: 0%

A few entries again (set 2):
Cyclin-dependent kinase 9 (CDK9, Homo sapiens, UniProt P50750); binding: 95%
Ribosomal protein S6 kinase alpha-6, C-terminal kinase domain (RPS6KA6, Homo sapiens, UniProt Q9UK32); binding: 92%
Epidermal growth factor receptor (EGFR, Homo sapiens, UniProt P00533, del752-759); cell-free assay: 84%
Fibroblast growth factor receptor 4 (FGFR4, Homo sapiens, UniProt P22455); cell-free assay: 73%
Mitogen-activated protein kinase kinase kinase 19 (MAP3K19, Homo sapiens, UniProt Q56UN5); binding: 86%
